Experimental data from different studies.
Each line is one published result; not all experiments were run side by side. ± marks the error that the study gave. *: point of attachment.
B1: N-biotin-Ahx, C-amide; Biotin = O=C1N[C@H]2[C@H](CS[C@H]2CCCCC(=O)*)N1; Ahx = NCCCCCC(=O)O; chain {Biotin-Ahx}-KKGFYKKKQCRPSKGRKRGFCWAVDKYG-NH2 (cysteine pairing not given here)

For CCCCCCCCCCCCCCCCCCOCC(COP(=O)([O-])OCC[N+](C)(C)C)OC (stereo not shown), “mean growth inhibition” read 28% (nine NSCLC cell lines; 10 µM).
For CCn1c2ccccc2c2cc(C3CC(c4cc5ccccc5oc4=O)=NN3C(N)=O)ccc21 (stereo not shown), “cells in G0/G1 phase” read 59.8% (NCI-H520; propidium iodide staining; IC50, 24 h).
For O=C1NC2(CCCCC2)c2[nH]c(=S)nc(-c3ccccc3)c21, the inhibition was 74.4% (human erythrocytes; hypotonicity-induced hemolysis; 200 µg/mL, 1 h).
Under “labile iron pool concentration”, O=C(NN=Cc1c(O)ccc2ccccc12)c1ccncc1 is recorded as 3.07 ± 0.46 µM (human erythrocytes; iron chelator, calcein dequenching; 100 µM).
`B1` — result for “uptake of HRP complex”: “inhibited” (CHO pgsD-677, heparan sulfate-deficient; 30 min, 37 °C, 240 ng/mL peptide-HRP complex).
For c1ccc2c(-c3cnn4cc(-c5ccc(N6CCNCC6)cc5)cnc34)ccnc2c1, Smad1/5/8 phosphorylation read “inhibited” (mouse PASMCs expressing ALK2 Q207D; immunoblot; 100 nM).
`CSTSCR` gave an adherent cells of 82% (rabbit smooth muscle cells; peptide; 2 µg coated per well, 30 to 60 min; relative to: thrombospondin-coated wells).
For O=C(/C=C/N1[C@H]2CC[C@@H]1c1ncnc(NC3CC3)c1C2)c1ccccc1O, the effective concentration was 5 µM (C3H10T1/2; adipocyte differentiation, Oil Red O staining).
For CCOc1cc(C(=O)N2CCC(N3CCN(C)CC3)CC2)ccc1Nc1ncc2c(n1)N(C1CCCC1)c1ccccc1C(=O)N2C, proliferation read “inhibited” (MM1.S; 500 nM and 1 µM, 3 days, added: IL-6 5 nM).
Under “fluorescent area per cell”, CC1(C)C(/C=C/C=C/C=C/C=C2\N(CCCCS(=O)(=O)O)c3ccc4ccccc4c3C2(C)C)=[N+](CCCCS(=O)(=O)[O-])c2ccc3ccccc3c21 is recorded as 2.06 ± 0.46% (U87MG-luc; confocal microscopy; 20 µM, 4 h).
For CCCC[C@H]1NC(=O)[C@H]([C@@H](C)O)NC(=O)[C@@H](C)NC(=O)[C@H](CCCNC(=N)N)NC(=O)[C@H](CCCNC(=N)N)NC(=O)[C@H](CCCNC(=N)N)NC(=O)[C@@H](Cc2ccc3ccccc3c2)NC(=O)[C@H](CCCNC(=N)N)NC(=O)[C@H](Cc2ccc(F)cc2)NC(=O)[C@H](Cc2c[nH]c3ccccc23)NC(=O)[C@H](CCC(N)=O)NC1=O, “time to comparable ERK dephosphorylation” read 20 min (H1299; immunoblot, item: phospho-ERK1/2; concentration not given).
For CCC#CC[C@H](C)[C@H](O)/C=C/[C@H]1CC(F)(F)C(=O)N1CCCCCCC(=O)O, the EC50 was 2.15 nM (rat bone marrow cells; alkaline phosphatase activity, activator; 9 days, vehicle pretreatment).
With COc1cccc2c1C(=O)c1c(O)c3c(c(O)c1C2=O)C[C@@](O)(C(=O)CO)C[C@@H]3O[C@H]1C[C@H](N)[C@H](O)[C@H](C)O1 the mRNA level was 4.17 ± 0.91 (HepG2; real-time PCR, item: caspase-3; 0.1 µM, 8 h, unit not given; relative to: untreated).
The eosinophil chemotaxis of CC(C)[C@H](N)C(N)=O is reported as 96.2% (human eosinophils; 10 to 6 M, 20 min pretreatment, 37 °C, cells washed before stimulus, added: valyl-tetrapeptide; relative to: control).
O=C1CCC(=O)C2(CCCCC2)N1 has an inhibition of 61.3% (human erythrocytes; hypotonicity-induced hemolysis; 200 µg/mL, 1 h).
For CNC(=O)c1cccc2cc(Oc3ccnc4cc(OCC5(N)CC5)c(OC)cc34)ccc12, “lowest effective concentration” read at least 100 nM (SNU-16; inhibitor, Western blot; 2 h, serum starved).
For COc1ccc2c(c1)c(CC(=O)O)c(C)n2C(=O)c1ccc(Cl)cc1, the inhibition was 90% (human erythrocytes; hypotonicity-induced hemolysis; 200 µg/mL, 1 h).
The Hill slope of COc1cc(O)c2c(c1)O[C@H](c1ccc(O)cc1)CC2=O is reported as -2.7 ± 1 (BV-2; TNF-alpha release, inhibitor, ELISA; 24 h, added: 10 µg/mL LPS + 1 µM nicotine).
For CC[C@H](C)[C@H](NC(=O)[C@@H](CC(=O)NO)Cc1ccccc1)C(=O)N[C@@H](CC(C)C)C(=O)O, the angiotensin-(1-7) content was 37 ± 5 fmol/mg protein (HK-2; RIA; intracellular; 20 nM, 72 h).
The Kd of CC(C)(N)C(=O)O is reported as 9.2 mM (Ehrlich ascites cells, mouse; Na+ binding to substrate-carrier; equilibrium model K4).
The adherent cells of `ANKHYF` is reported as 17% (rabbit smooth muscle cells; peptide; 2 µg coated per well, 30 to 60 min; relative to: thrombospondin-coated wells).
The inhibition of NC1=NC(=S)NC12CCCCC2 is reported as 97.8% (human erythrocytes; hypotonicity-induced hemolysis; 1000 µg/mL, 1 h).
The GI50 of Cc1ccc(C(=O)NCc2ccsc2)cc1C#Cc1cn(C(C)C)c2ncnc(N)c12 is reported as over 1000 nM (A-431, EGFR amplified).
The GI50 of CCCCCCCCCCCCCCCCCCOc1ccccc1CC(=O)OCC[N+]1(C)CCCC1 is reported as under 3000 nM (leukaemia cells; range over four lines).
COc1cc(Cc2nnc3sc(/C=C/c4ccc(F)cc4)nn23)c(S(=O)(=O)N(C)C)cc1OC has a TGI of over 100 µM (MRC5 normal lung fibroblasts; MTT; 48 h).
Under “PSA reporter activity”, O=C1/C(=C/c2ccc(O)c(Br)c2)CN(Cc2cccc(Cl)c2)C/C1=C\c1ccc(O)c(Br)c1 is recorded as “decreased” (LNCaP cells; reporter gene, luciferase; up to 8 to 10 µM, 2 days; relative to: CMV-Renilla control).
For CNCCCN1c2ccccc2CCc2ccccc21, [18F]-DOPA retention read “no effect” (mouse pheochromocytoma MPC cells; 1 µM, 30 min preincubation, added: 0.029 MBq/mL [18F]-DOPA 120 min; relative to: control).
The viability decrease of N.N.O=C([O-])C1(C(=O)[O-])CCC1.[Pt+2] is reported as 30% (A2780/CP70 (platinum-resistant); 52.8 µM, 72 h).
`Fibronectin`: “neurons with neurites” about 30% (chick DRG neurons; 5 µg/mL, 24 h, coated substrate).
Cc1cc(-c2ccccc2)c2c(n1)C1(CCCCC1)NC2=O has an inhibition of 82.7% (human erythrocytes; hypotonicity-induced hemolysis; 600 µg/mL, 1 h).
C[C@H](NC(=O)Cc1cc(F)cc(F)c1)C(=O)N[C@H](C(=O)OC(C)(C)C)c1ccccc1: mRNA level “decreased” (HPB-ALL; qPCR, item: HES1; 30 µM, 16 h, 37 °C; relative to: untreated).
COc1ccc(-c2ccc(-c3ccc(C(=N)N)nc3)s2)cc1Cl has a mRNA level of 1.85 ± 0.11 (HepG2; real-time PCR, item: caspase-3; 0.1 µM, 8 h, unit not given; relative to: untreated).
For CC(=O)[C@]1(O)Cc2c(O)c3c(c(O)c2[C@@H](O[C@H]2C[C@H](N)[C@H](O)[C@H](C)O2)C1)C(=O)c1ccccc1C3=O, “number of upregulated proteins” read 202 (hiPSCs; LC-MS/MS proteomics; concentration not given, 24 h, fold change above 1.5).
Under “IFN-gamma single producers”, `SIYNFEKL` is recorded as 0.12% (OT-I CD8+ T cells; peptide; primed 5 d, OVA257 100 ng/mL restimulation, added: 20 ng/mL TGF-beta1 from day 2).
`AIAEGDSHVLKEGAY / MEIFDVQGHVFGGKIFRVVDLGSHNVA (oligomer)` — result for “T cell association”: 55 to 60% (human T cells; flow cytometry, ThT label; peptide; 10 µM, 1 h).
O=C1NC2(CCCCC2)c2nc3c(c(-c4ccccc4)c21)CCCC3 gave an inhibition of 76.1% (human erythrocytes; hypotonicity-induced hemolysis; 100 µg/mL, 1 h).
`RBRBRBRBRBRBRBRBB (PMO conjugate)` — result for “luciferase activity change”: “no effect” (HeLa pLuc705 cells; splice correction; peptide, OptiMEM 10% FBS; 1 to 5 µM, 24 h, L-Arg to D-Arg replacement).
For `neuropeptide Y`, cAMP level read “no effect” (rat sciatic nerve fibroblasts; radioimmunoassay; concentration not given, 2 min, added: 200 µM IBMX).
For `SIIVFEKL`, the TNF-alpha+ cells was 27.7% (OT-I CD8+ T cells; peptide; concentration not given, primed 5 d, OVA257 100 ng/mL restimulation, added: 20 ng/mL TGF-beta1 from day 2).
CC[C@H](C)[C@H](NC(=O)[C@H](CC(C)C)NC(=O)[C@@H](NC(=O)[C@@H]1CCCN1C(=O)[C@@H](NC(=O)[C@@H]1CCCN1C(=O)[C@@H](NC(=O)[C@H](CO)NC(=O)[C@H](Cc1c[nH]cn1)NC(=O)[C@@H]1CCCN1C(=O)[C@H](CCCNC(=N)N)NC(=O)[C@H](CCCCN)NC(=O)[C@H](CCCNC(=N)N)NC(=O)[C@H](CCCNC(=N)N)NC(=O)[C@H](CCCNC(=N)N)NC(=O)[C@@H]1CCCN1C(=O)[C@H](CCCNC(=N)N)NC(=O)[C@H](CC(C)C)NC(=O)[C@H](CC(C)C)NC(=O)[C@H](Cc1c[nH]cn1)NC(=O)[C@H](Cc1c[nH]cn1)NC(=O)CNC(=O)[C@@H](N)CSSC[C@H](N)C(=O)NCC(=O)N[C@@H](Cc1c[nH]cn1)C(=O)N[C@@H](Cc1c[nH]cn1)C(=O)N[C@@H](CC(C)C)C(=O)N[C@@H](CC(C)C)C(=O)N[C@@H](CCCNC(=N)N)C(=O)N1CCC[C@H]1C(=O)N[C@@H](CCCNC(=N)N)C(=O)N[C@@H](CCCNC(=N)N)C(=O)N[C@@H](CCCNC(=N)N)C(=O)N[C@@H](CCCCN)C(=O)N[C@@H](CCCNC(=N)N)C(=O)N1CCC[C@H]1C(=O)N[C@@H](Cc1c[nH]cn1)C(=O)N[C@@H](CO)C(=O)N[C@H](C(=O)N1CCC[C@H]1C(=O)N[C@H](C(=O)N1CCC[C@H]1C(=O)N[C@H](C(=O)N[C@@H](CC(C)C)C(=O)N[C@H](C(=O)N[C@@H](Cc1ccccc1)C(=O)N[C@@H](CCCNC(=N)N)C(=O)N[C@@H](CO)C(=O)N1CCC[C@H]1C(=O)O)[C@@H](C)CC)[C@@H](C)CC)[C@@H](C)O)[C@@H](C)CC)[C@@H](C)CC)[C@@H](C)O)[C@@H](C)CC)C(=O)N[C@@H](Cc1ccccc1)C(=O)N[C@@H](CCCNC(=N)N)C(=O)N[C@@H](CO)C(=O)N1CCC[C@H]1C(=O)O: “apoptotic tumour cells” 45.9 ± 30.6% (MDA-MB-231 co-cultured with PBMC; annexin V/PI flow cytometry; 10 µg/mL, 4 to 6 days).

A few entries again:
For CNCCCN1c2ccccc2CCc2ccccc21, [18F]-DOPA retention read “no effect” (mouse pheochromocytoma MPC cells; 1 µM, 30 min preincubation, added: 0.029 MBq/mL [18F]-DOPA 120 min; relative to: control).
The viability decrease of N.N.O=C([O-])C1(C(=O)[O-])CCC1.[Pt+2] is reported as 30% (A2780/CP70 (platinum-resistant); 52.8 µM, 72 h).
`Fibronectin`: “neurons with neurites” about 30% (chick DRG neurons; 5 µg/mL, 24 h, coated substrate).
Cc1cc(-c2ccccc2)c2c(n1)C1(CCCCC1)NC2=O has an inhibition of 82.7% (human erythrocytes; hypotonicity-induced hemolysis; 600 µg/mL, 1 h).
C[C@H](NC(=O)Cc1cc(F)cc(F)c1)C(=O)N[C@H](C(=O)OC(C)(C)C)c1ccccc1: mRNA level “decreased” (HPB-ALL; qPCR, item: HES1; 30 µM, 16 h, 37 °C; relative to: untreated).
